Measured values of several laboratories.
Parts stem from different laboratories: compare values within a part only.

Sample 1
Structure (SMILES): CC(C)n1cnc(-c2ccc(F)cc2)c1-c1ncc(C(=O)Nc2ccc(N3CCN(C)CC3)cc2)[nH]1
Technique: phase 2a trial
Species: idiopathic pulmonary fibrosis patients
dose | notes | patients with rhinorrhoea
all arms | grade 4 emergent event | 0%
30 mg once daily | grade 2 emergent event | 0%
60 mg once daily | grade 5 emergent event | 0%
all arms | grade 3 emergent event | 0%

Sample 2
Target: Beta-1 adrenergic receptor (ADRB1, Homo sapiens, UniProt P08588)
UniProt P08588, sequence (whole entry, looked up): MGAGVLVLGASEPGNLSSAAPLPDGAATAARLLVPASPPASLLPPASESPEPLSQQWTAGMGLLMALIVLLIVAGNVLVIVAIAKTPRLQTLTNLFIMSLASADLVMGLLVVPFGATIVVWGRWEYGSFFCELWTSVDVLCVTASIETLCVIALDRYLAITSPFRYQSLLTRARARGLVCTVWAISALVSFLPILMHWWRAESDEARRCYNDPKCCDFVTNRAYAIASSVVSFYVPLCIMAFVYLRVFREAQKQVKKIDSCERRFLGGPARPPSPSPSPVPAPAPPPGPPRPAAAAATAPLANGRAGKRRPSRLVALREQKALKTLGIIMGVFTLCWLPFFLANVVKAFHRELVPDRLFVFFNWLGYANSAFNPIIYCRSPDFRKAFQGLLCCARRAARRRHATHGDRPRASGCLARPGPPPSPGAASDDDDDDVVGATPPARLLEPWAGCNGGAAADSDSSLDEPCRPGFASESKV
Action: antagonist
SMILES | IC50 [µM]
CCN(C)c1ccc(C(=O)N2CCC(c3c[nH]c4ccc(C(N)=O)cc34)CC2)cc1 | ≥ 100
C#CC1(OCC(O)CN2CCN(c3cccc(C(F)(F)F)c3)CC2)CCCCC1 (stereo not shown) | ≥ 100
Cc1nn2c(=O)cc(CSc3nnc(-c4ccccc4C)o3)nc2s1 | ≥ 100
Fc1ccc(-c2c[nH]c([C@@H]3COCCN3Cc3cnc4ccccc4c3)n2)cc1 | ≥ 100
Cc1nnc2n1CCN(c1nc(-c3ccccc3)c3ccccc3n1)C2 | ≥ 100
OC(COc1ccc(CN2CC(N3CCCCC3)C2)cc1)CN1CCCCC1 (stereo not shown) | ≥ 100

Sample 3
Target: Receptor tyrosine-protein kinase erbB-4 (ERBB4, Homo sapiens, UniProt Q15303)
UniProt Q15303, sequence (whole entry, looked up): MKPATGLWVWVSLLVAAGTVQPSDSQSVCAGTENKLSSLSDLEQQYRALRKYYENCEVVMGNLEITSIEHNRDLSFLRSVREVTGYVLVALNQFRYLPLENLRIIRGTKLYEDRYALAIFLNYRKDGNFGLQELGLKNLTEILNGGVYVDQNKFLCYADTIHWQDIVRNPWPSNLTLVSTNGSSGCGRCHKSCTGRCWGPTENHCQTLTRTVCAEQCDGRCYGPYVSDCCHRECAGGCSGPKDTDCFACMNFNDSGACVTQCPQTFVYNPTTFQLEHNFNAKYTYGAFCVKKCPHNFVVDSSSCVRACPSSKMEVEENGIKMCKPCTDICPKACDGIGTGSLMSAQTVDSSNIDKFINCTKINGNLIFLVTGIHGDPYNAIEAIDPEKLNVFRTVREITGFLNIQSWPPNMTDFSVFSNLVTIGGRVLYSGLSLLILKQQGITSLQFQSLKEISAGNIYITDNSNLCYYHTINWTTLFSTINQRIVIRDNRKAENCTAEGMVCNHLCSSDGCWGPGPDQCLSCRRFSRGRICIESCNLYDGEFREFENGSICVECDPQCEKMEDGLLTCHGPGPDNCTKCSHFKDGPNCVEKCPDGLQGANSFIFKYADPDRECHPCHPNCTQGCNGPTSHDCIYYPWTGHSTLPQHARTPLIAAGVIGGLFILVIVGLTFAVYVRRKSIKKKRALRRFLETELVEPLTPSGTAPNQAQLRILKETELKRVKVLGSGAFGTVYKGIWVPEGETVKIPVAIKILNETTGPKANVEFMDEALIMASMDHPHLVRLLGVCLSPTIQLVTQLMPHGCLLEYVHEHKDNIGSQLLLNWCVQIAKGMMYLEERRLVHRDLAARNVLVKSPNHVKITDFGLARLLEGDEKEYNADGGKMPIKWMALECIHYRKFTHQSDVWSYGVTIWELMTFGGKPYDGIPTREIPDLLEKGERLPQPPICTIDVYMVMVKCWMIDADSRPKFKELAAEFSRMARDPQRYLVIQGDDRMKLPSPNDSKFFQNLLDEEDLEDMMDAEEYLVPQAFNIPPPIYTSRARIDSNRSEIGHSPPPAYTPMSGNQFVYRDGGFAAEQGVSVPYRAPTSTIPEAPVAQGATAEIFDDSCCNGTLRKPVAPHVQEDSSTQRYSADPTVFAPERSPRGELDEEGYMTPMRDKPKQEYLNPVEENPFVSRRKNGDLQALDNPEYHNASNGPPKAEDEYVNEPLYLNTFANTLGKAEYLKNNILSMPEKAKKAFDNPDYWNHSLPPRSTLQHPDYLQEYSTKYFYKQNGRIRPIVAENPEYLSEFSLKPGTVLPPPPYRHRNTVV
Observed: enzyme activity
Action: inhibitor
Tested at: 0.5 µM
Relative to: control
SMILES | remaining activity
CSc1nc(-c2ccnc(N[C@@H](C)c3ccccc3)c2)c(-c2ccc(F)cc2)[nH]1 (racemic) | 98.4%
CCCC(=O)Oc1ccc2[nH]c(C(=O)c3cc4ccccc4[nH]3)cc2c1 | 99.8%
Cc1ccc(NC2=CC(=O)c3sc(C)nc3C2=O)cc1 | 98.5%
CC[n+]1c(/C=C/N(C)c2ccccc2)n(-c2ccccc2)c2ccc(-c3nc4ccccc4s3)cc21 | 102%
CC#CC(=O)Nc1cc2c(Nc3ccc(F)c(Cl)c3)ncnc2cn1 | 1.95%

Further values, each from its own experiment
Compound | species | matrix | route | dose | quantity | result
COc1ccc(-c2c(Nc3ccccn3)[nH]c3c(C4=CCCCC4)c(-c4ccccc4)nn3c2=O)cc1 | human | plasma | oral | 50 mg QD | AUC(tau) extrapolated share | 0%
